Measured values from different studies.
A part holds a random share of what one study measured. Positions count from the first letter of the parent shown.
Chain of UniProt O75417 (whole entry, unmodified, looked up): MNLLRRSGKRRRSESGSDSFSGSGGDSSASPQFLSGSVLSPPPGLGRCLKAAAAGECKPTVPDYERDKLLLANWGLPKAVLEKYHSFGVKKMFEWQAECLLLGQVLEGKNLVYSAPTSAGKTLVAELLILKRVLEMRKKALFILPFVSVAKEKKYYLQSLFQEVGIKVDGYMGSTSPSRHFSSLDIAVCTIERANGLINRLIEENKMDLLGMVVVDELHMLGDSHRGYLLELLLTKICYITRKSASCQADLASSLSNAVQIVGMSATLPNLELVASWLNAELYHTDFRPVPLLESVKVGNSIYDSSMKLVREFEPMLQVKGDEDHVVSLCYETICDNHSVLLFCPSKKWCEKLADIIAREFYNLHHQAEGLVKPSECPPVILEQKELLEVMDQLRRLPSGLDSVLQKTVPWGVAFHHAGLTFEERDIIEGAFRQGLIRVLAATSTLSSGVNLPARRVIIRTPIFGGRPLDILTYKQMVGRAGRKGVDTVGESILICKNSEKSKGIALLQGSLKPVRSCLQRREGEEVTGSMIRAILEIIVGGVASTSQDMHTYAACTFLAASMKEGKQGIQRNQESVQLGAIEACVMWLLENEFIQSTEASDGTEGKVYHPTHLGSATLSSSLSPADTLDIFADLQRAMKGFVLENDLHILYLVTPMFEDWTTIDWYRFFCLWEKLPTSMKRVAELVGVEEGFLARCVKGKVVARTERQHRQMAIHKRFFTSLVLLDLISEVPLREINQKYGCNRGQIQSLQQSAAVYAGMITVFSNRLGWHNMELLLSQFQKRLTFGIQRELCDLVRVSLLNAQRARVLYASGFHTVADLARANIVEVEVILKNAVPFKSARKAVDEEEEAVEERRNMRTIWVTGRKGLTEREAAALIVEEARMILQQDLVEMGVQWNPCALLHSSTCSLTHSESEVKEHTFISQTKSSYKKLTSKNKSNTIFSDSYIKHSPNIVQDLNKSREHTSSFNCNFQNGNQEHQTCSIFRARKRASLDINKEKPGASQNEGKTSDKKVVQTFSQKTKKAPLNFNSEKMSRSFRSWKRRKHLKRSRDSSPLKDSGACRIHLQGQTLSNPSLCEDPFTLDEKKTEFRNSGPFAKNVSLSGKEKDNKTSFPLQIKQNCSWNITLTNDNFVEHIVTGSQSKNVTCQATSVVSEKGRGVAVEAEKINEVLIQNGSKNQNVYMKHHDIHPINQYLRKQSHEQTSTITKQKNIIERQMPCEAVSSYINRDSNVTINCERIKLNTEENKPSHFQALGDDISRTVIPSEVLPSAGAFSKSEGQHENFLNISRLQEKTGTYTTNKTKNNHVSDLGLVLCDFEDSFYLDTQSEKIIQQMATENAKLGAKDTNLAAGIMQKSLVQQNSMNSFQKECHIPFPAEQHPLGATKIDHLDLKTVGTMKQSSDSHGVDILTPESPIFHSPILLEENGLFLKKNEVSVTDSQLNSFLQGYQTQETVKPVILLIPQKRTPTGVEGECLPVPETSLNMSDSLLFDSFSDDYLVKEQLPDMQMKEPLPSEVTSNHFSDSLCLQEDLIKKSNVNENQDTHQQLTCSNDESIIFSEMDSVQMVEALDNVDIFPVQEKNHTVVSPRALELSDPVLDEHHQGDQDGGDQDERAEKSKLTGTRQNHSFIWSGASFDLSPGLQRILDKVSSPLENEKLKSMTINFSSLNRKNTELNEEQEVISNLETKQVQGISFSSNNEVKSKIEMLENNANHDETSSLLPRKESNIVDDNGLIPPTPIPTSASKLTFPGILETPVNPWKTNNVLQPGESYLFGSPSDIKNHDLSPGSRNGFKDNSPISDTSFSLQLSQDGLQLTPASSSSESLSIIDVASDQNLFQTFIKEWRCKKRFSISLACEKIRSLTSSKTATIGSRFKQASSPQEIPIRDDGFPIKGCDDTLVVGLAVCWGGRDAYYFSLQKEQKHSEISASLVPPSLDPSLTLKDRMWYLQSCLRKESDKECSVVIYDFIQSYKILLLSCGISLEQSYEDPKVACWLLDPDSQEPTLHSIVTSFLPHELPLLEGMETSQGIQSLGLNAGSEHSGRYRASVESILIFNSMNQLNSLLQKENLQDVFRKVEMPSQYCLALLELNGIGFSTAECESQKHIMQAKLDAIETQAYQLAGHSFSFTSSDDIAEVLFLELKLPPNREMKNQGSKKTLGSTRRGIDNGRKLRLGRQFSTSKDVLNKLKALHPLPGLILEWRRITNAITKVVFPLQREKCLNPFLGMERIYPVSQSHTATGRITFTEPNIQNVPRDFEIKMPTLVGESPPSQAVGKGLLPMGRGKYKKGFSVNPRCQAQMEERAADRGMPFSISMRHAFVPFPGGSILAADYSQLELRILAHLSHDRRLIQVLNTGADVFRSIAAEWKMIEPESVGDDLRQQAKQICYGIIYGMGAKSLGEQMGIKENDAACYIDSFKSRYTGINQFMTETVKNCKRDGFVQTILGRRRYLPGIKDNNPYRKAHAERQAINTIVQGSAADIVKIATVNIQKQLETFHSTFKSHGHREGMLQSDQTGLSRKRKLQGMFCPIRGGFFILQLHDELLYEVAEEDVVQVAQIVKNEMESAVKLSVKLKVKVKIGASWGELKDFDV
Chain of UniProt O60285 (whole entry, looked up): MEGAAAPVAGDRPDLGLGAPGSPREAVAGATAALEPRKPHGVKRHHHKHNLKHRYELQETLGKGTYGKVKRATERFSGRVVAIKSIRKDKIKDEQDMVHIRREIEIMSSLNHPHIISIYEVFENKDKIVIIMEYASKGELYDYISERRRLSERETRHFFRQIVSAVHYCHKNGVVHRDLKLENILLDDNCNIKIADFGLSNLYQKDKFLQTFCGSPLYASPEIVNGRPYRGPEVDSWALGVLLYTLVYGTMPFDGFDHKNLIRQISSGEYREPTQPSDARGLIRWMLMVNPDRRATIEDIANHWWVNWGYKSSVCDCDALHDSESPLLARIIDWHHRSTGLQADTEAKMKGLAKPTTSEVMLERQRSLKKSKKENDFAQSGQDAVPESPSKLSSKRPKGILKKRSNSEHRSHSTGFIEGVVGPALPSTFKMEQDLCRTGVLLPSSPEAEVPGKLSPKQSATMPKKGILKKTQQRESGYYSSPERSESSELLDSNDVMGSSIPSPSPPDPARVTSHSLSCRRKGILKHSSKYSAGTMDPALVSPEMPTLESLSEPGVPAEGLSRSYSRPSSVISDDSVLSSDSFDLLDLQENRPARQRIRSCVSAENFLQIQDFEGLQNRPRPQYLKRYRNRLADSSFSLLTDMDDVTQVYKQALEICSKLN
Chain of UniProt P60842 (whole entry, looked up): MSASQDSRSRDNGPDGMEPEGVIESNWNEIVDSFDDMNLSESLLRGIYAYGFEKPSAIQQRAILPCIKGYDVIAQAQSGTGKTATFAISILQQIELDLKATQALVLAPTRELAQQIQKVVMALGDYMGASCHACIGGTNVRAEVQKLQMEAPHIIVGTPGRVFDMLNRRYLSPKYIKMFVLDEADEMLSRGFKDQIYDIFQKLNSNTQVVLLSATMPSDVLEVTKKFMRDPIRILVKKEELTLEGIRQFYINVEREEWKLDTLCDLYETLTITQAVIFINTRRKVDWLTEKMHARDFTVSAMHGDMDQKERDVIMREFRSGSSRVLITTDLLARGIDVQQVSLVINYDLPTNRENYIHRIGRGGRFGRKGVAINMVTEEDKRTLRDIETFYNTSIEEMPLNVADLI

Set 1
Target: inorganic phosphate, free oxyanion
Technique: microfluidic competitive inhibition
Sample: in vitro, cell-free expressed
Tested at: not given
Setting: derived from inhibition constants, unchanged parent 615000 nM
Direction: lower = stronger binding
Parent: PafA, mature enzyme, eGFP fusion (Elizabethkingia meningoseptica, UniProt Q9KJX5); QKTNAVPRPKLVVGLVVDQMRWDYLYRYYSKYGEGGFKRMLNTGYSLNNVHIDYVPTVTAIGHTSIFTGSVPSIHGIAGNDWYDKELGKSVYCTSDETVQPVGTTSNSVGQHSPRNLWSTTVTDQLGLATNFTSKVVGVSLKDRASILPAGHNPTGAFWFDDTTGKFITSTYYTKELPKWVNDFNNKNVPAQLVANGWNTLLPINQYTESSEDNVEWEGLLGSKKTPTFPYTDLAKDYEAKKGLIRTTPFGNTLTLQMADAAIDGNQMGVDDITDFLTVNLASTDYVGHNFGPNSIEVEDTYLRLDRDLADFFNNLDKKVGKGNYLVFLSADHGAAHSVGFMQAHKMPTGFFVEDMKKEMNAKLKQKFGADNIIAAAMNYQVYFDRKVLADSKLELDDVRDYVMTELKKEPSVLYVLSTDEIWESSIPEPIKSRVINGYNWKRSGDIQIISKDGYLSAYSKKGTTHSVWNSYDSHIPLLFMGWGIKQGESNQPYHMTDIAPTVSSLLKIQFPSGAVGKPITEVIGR
| Change | phosphate dissociation constant |
| --- | --- |
| I66V | 576 µM |
| V339G | 384 µM |
| R304G | 439 µM |
| M347V | 676 µM |
| L479G | 598 µM |
| N107V | 626 µM |
| R526G | 594 µM |
| V399G | 485 µM |

Set 2
Target: CCND2, cyclin fold, Cln2 fusion (human)
Technique: yeast growth competition, sequencing
Sample: yeast
Setting: weak parent motif
Baseline: not given
Direction: higher = stronger binding
Parent: viral docking peptide; KGVKRKLFAEDSS
| Change | normalised enrichment score |
| --- | --- |
| KGVKRKLFAERSS [D11R] | -0.134 |
| KSVKRKLFAEDSS [G2S] | -0.0976 |
| KGVKRKLFAEFSS [D11F] | 0.133 |
| KGVKRKLFAEDLS [S12L] | 0.0953 |
| KGVKRKLFAEDDS [S12D] | 0.285 |
| KLVKRKLFAEDSS [G2L] | -0.0467 |
| KGVKRKLFHEDSS [A9H] | -0.0724 |
| KGVKRKLFAEDGS [S12G] | -0.41 |

Single results of other studies
| Structure (SMILES) | target | test | setting | how to read | quantity | value |
| --- | --- | --- | --- | --- | --- | --- |
| COC[C@H]1OC(=O)c2coc3c2[C@@]1(C)C1=C(C3=O)[C@@H]2CCC(=O)[C@@]2(C)C[C@H]1OC(C)=O | NUAK1 (Homo sapiens, UniProt O60285) | enzyme activity, inhibitor | 0.5 µM | baseline: control | remaining activity | 95% |
| COC(=O)[C@@H]1[C@@H](c2ccccc2)[C@]2(c3ccc(OC)cc3)Oc3cc(OC)cc(OC)c3[C@@]1(O)[C@H]2O | EIF4A1 (Homo sapiens, UniProt P60842) | RNA clamping, fluorescence polarization | concentration not given, together with: FAM-labelled poly r(AG)8 RNA | higher = more clamping | fluorescence polarization change | 10.2 mP |
| C[N+]1(C)CCOC(O)(c2ccc(-c3ccc(C4(O)C[N+](C)(C)CCO4)cc3)cc2)C1 (stereo not shown) | DNA polymerase theta, ATPase domain (POLQ, Homo sapiens, UniProt O75417) | enzyme activity, inhibitor | 77 µM | baseline: untreated | remaining activity | 93% |

For quick reference, copied from above (set 2):
| Change | normalised enrichment score |
| --- | --- |
| KGVKRKLFAEDLS [S12L] | 0.0953 |
| KGVKRKLFAEDDS [S12D] | 0.285 |
| KLVKRKLFAEDSS [G2L] | -0.0467 |
